Results from different studies.
Compare with care: the assays were run in different laboratories. Numbers after ± are the reported error.
Sequence of UniProt Q05655 (whole entry, looked up): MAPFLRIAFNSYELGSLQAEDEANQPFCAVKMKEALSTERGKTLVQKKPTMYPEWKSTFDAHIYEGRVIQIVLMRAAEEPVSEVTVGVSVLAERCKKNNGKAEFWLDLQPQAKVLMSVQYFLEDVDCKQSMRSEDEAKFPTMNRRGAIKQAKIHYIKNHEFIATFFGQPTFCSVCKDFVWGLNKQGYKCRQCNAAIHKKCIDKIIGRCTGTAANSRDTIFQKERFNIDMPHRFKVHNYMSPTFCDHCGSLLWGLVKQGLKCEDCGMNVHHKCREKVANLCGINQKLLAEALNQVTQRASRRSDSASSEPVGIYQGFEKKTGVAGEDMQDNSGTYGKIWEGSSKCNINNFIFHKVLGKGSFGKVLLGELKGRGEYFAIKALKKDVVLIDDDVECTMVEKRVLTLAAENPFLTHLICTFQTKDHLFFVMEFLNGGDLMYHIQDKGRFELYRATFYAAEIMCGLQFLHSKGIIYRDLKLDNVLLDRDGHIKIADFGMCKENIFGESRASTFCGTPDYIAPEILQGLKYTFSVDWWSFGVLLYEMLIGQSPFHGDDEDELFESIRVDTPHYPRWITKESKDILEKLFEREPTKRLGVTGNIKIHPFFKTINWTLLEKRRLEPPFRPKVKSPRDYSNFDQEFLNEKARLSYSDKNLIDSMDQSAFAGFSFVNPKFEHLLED

| Structure (SMILES) | tested on | assay | test system | conditions | scale | endpoint | result |
| --- | --- | --- | --- | --- | --- | --- | --- |
| C[C@]1(CO)Cc2ncn(-c3ccc(C#N)c(Cl)c3)c2C(=O)O1 | – | – | healthy European subjects | dose not given, single dose, all doses | – | drug-related dysgeusia | 2.1% |
| CC(C)c1cccc(N=Nc2ccc3[nH]cc(CCN(C)C)c3c2)c1 | – | light irradiation | solution | with: light 530 nm | – | trans isomer at photostationary state | 83% |
| CO[C@H]1C[C@@H]2CC[C@@H](C)[C@@](O)(O2)C(=O)C(=O)N2CCCC[C@H]2C(=O)O[C@H]([C@H](C)C[C@@H]2CC[C@@H](OC(=O)NCCOCCOCCOCCOCCOCCOCCOCCOCCC(=O)N3CCc4cc(Cn5nc(-c6ccc7oc(N)nc7c6)c6c(N)ncnc65)ccc4C3)[C@H](OC)C2)C[C@@H](O)[C@H](C)/C=C(\C)[C@@H](O)[C@@H](OC)C(=O)[C@H](C)C[C@H](C)/C=C/C=C/C=C/1C | – | – | patients with advanced solid tumours | intravenous, dose not given, any grade | – | Mucositis AE leading to dose reduction | 5.3% |
| O=C(Nc1ccc(Cl)cc1)Nc1ccc(Cl)c(Cl)c1 | – | ultrafiltration | cow milk whey | 2000 nM nominal in whole milk | – | final permeate concentration | 3.86 nM |
| COC[C@@]12CC[C@H](OC)[C@]34C(C([C@H](OC)[C@H]13)[C@]1(OC(C)=O)[C@H]3[C@@H](OC(=O)c5ccccc5)[C@](O)(C[C@H]34)[C@@H](OC)[C@@H]1O)N(C)C2 | – | – | Sprague-Dawley rat, plasma | oral, dose not given, in PCW extract | – | half-life | 2.96 ± 1.53 h |
| O=C(Nc1ccccc1)C1CCN(C(=O)Oc2cccnc2)CC1 | – | Bond-Lader VAS | healthy women | 60 mg | baseline: pre-dose baseline, direction not given | change in Strong-feeble score | 2.4 |
| Cn1ncc(-c2nc(N[C@H]3CC[C@H](N)CC3)ncc2Cl)c1CC1CC1 | – | phase I dose escalation | human patients | dose not given, treatment-related grade 3 or higher | – | gamma-glutamyl transferase increase incidence | 3.2% |
| C[C@@H](NC(=O)N1C(=O)[C@H](Cc2ccnc(N)c2)[C@H]1C(=O)O)C1CCCCC1 | – | – | healthy Chinese adults | continuous intravenous infusion, 2.25 mg/kg/h, 5.0 days | – | related decreased WBC | 0% |
| C=CCNc1c(O)cc2c(O)c1C[C@@H](C)C[C@H](OC)[C@H](O)[C@@H](C)/C=C(\C)[C@H](OC(N)=O)[C@@H](OC)/C=C\C=C(/C)C(=O)N2 | – | – | unresectable or metastatic STS, GIST, other | intravenous, 150 mg/m^2 | – | patients with nausea TEAE | 67% |
| C=CC(=O)Nc1cc(Nc2nccc(Nc3cc(Cl)c(F)cc3C(C)(C)O)n2)c(OC)cc1N1CC[C@@H](N(C)C)C1 | – | treatment-emergent adverse events | human | oral, 200 mg, phase I clinical trial | – | incidence of blood creatinine increased | 6.3% |
| CN1CCC(CNc2ccc3ncc(-c4cccc(OC(F)(F)F)c4)n3n2)CC1 | – | systemic toxicity signature, BioMAP Diversity PLUS | primary human cell cocultures | – | – | lowest toxic concentration | ≥ 10 µM |
| CN1CC[C@@H](c2c(O)cc(O)c3c(=O)cc(-c4ccc(C(F)(F)F)cc4Cl)oc23)[C@@H]1CO | – | measured: febrile neutropenia | AML | oral, 100 mg, grade 3 to 4, intermittent dosing | – | patients with adverse event | 0% |
| O=C1Nc2cc3[nH]nc(-c4ccncc4)c3cc2CN1Cc1ccccc1 | – | CTCAE v4.03 | advanced solid tumour patients | intravenous, 7.2 mg/kg, schedules 1/2 | – | patients with dyspnoea | 0% |
| CCCN(CCC)CCCNC(=O)C1CCCN(Cc2nc(-c3ccc(Cl)cc3)oc2C)C1 (stereo not drawn) | Vero-E6 | CellTiter-Glo ATP | – | 72 h, retest 8-point duplicates | baseline: DMSO 0%, hyamine -100%, more negative, more toxic | maximum response | -16.5% |
| O=S(=O)(Nc1ccccc1)c1ccc(NC(=S)Nc2ccccc2)cc1 | – | measured: AST | male mouse, blood | oral, 80 mg/kg daily, 14 days | – | serum enzyme activity | 596 U/L |
| CC(C)C(=O)OC[C@H]1O[C@@H](n2ccc(NO)nc2=O)[C@H](O)[C@@H]1O | – | – | rat maternal blood dialysate | 250 ng/mL, 6 h, room temperature, high concentration, with: NHC 1000 ng/mL | – | bench-top stability | 100.7 ± 0.26% |
| c1cc2ccc3cccc4ccc(c1)c2c34 | – | – | pooled human liver microsomes | 2.5 µM, pH 7.4 | – | metabolism rate | 123 pmol/min/mg |
| CC1(C)[C@H](C=C(Cl)Cl)[C@H]1C(=O)OCc1cccc(Oc2ccccc2)c1 | – | IVIVE scaling | human adult | – | – | hepatic intrinsic clearance | 9170 L/h/kg liver |
| COC[C@@H](CC(C)C)NC(=O)c1ccc(C)c(C)c1 | – | – | bone marrow polychromatic erythrocytes, mouse Hsd:ICR (CD-1), male | oral, 624 mg/kg, 24 h | – | micronucleated PCE per 1000 PCE | 0.4 |
| C/C(=N\C#N)N(C)Cc1ccc(Cl)nc1 | – | – | soil | 56 days, nominal 1.1 | – | recovery | 2% |

| Structure (SMILES) | tested on | assay | test system | conditions | scale | endpoint | result |
| --- | --- | --- | --- | --- | --- | --- | --- |
| N[C@@H]1c2ccccc2OC12CCN(c1cnc3c(N4CCCc5ncccc54)n[nH]c3n1)CC2 | – | – | patients advanced metastatic solid tumours | oral, 60 mg once daily, pooled cohort | – | peripheral oedema TEAE incidence | 56% |
| C[C@H](C(=O)N[C@H]1COc2ccccc2[C@@H]1S(C)(=O)=O)c1ccc(F)cc1 | – | – | Sprague-Dawley rat, male, brain | oral, 3 mg/kg, 1 h | – | free brain concentration over EC50 | 63 fold |
| CC(C)C[C@H](NC(=O)[C@H](CCCCN)NC(=O)OCC1c2ccccc2-c2ccccc21)C(=O)N[C@H](C(=O)N[C@@H](Cc1ccccc1)C(=O)N[C@@H](Cc1ccccc1)C(=O)N[C@@H](CCCCN)C(=O)NCC(=O)N[C@@H](Cc1ccccc1)C(=O)N[C@@H](C)C(=O)N[C@@H](Cc1c[nH]c2ccccc12)C(=O)N[C@@H](CC(N)=O)C(=O)N[C@H](C(=O)N[C@H]1CSSC[C@@H](C(=O)N[C@@H](Cc2c[nH]cn2)C(=O)N[C@@H](CCCNC(=N)N)C(=O)N[C@@H](CCCNC(=N)N)C(=O)N[C@@H](C)C(=O)N[C@@H](CC(N)=O)C(N)=O)NC(=O)[C@H](C(C)C)NC(=O)[C@H](CCCNC(=N)N)NC(=O)[C@H](C(C)C)NC(=O)CNC(=O)[C@H](CC(N)=O)NC(=O)[C@H](CCCNC(=N)N)NC(=O)[C@H](Cc2ccc(O)cc2)NC(=O)[C@H](C(C)C)NC1=O)C(C)C)C(C)C | – | – | ICR mouse, blood | intramammary, 10 mg/kg, day 5, 3 d dosing | – | eosinophils | 2.4 ± 0.24% |
| CC(C)[C@H](C(=O)O[C@H](C#N)c1cccc(Oc2ccccc2)c1)c1ccc(Cl)cc1 | – | measured: CYP3A4 | human, age 5 years | – | – | enzyme contribution to clearance | 2.07% |
| CC[C@H](C)[C@@H]1NC(=O)[C@@H]2CSSC[C@H](NC(=O)[C@H](CCCNC(=N)N)NC(=O)[C@@H]3CSSC[C@H](NC1=O)C(=O)N[C@@H]([C@@H](C)O)C(=O)N[C@@H](CCCNC(=N)N)C(=O)NCC(=O)N[C@@H](Cc1ccccc1)C(=O)N3)C(=O)N[C@@H](CC(C)C)C(=O)N[C@H]1CSSC[C@H](NC(=O)[C@H](C(C)C)NC(=O)CNC(=O)[C@H](CCCNC(=N)N)NC(=O)[C@H](CCCNC(=N)N)NC1=O)C(=O)N[C@@H](CCCNC(=N)N)C(=O)N2 | – | – | Sprague-Dawley rat, female, lung | 5 mg/kg, histopathology, multifocal | direction not given | alveolar macrophage aggregation score | 1 to 2 |
| CCc1ccc(CC/C=C/c2ccc3c(c2)C(=O)CC3)cc1 | – | – | Sprague-Dawley rat, female, serum | oral, 450 mg/kg/day, 14 days | – | sodium | 141 mM |
| CC(C)N(CCc1c[nH]c2cccc(OC(=O)CCCC(=O)O)c12)C(C)C.Cl | – | – | male beagle dog, plasma | subcutaneous, 1 mg/kg | – | AUC(0-inf) | 645 ng·h/mL |
| CC(C)(C)NCC(O)c1cc(O)cc(O)c1 (stereo not drawn) | – | – | human | oral | – | absorption rate constant | 2 h⁻¹ |
| COc1cc2c(Oc3ccc4[nH]c(C)cc4c3F)ccnc2cc1OCC1(N)CC1 | – | – | paediatric recurrent refractory sarcoma | 8 mg | – | grade 1 or 2 TBIL elevation | 0% |
| Cc1cc(OCCOCCC(F)(F)P(=O)(O)O)ccc1CCc1cnc2c(N)nc3cc(CCC(=O)O)ccc3c2c1 | – | measured: nausea | adults with advanced solid tumours | dose not given, all groups pooled, all grades | – | patients with non-serious AE | 13.3% |
| [O-][S+]1CCc2nc(N3CCC(c4ncc(Cl)cn4)CC3)nc(NC3(CO)CCC3)c21 (stereo not drawn) | – | phase I trial | healthy male volunteers, blood | oral, 12 mg twice daily, after last treatment | – | creatine kinase | 746 U/L |
| C[C@H]1CN(c2n[nH]c3nc(N[C@H]4CC[C@H](NS(=O)(=O)CCC(F)(F)F)CC4)ncc23)CCO1 | PRKCD (Homo sapiens, UniProt Q05655) | inhibitor, Kinobeads competition profiling | – | 20 µM | baseline: vehicle | relative abundance | 1.08 |
| CCCSc1ccc2nc(NC(=O)OC)[nH]c2c1 | – | – | mouse, blood | oral, 50 mg/kg, tolerability, mean | – | eosinophils | 6.54% |
| C=CC(=O)N1CC[C@H](n2nc(C#Cc3cc(OC)cc(OC)c3)c3c(N)ncnc32)C1 | – | – | patients with advanced solid tumours | oral, dose not given, Diarrhea, any grade, QD, with: ferric citrate hydrate | – | adverse drug reaction incidence | 100% |
| Cn1cncc1-c1c(F)cncc1NC(=O)c1c(N)nn2cc(F)cnc12 | – | – | human patients | oral, 220 mg once daily | – | grade ≥3 anaemia incidence | 33% |
| CCN1[C@@H](C(=O)NC23CCC(C(=O)O)(CC2)CC3)[C@H](c2cccc(Cl)c2F)[C@]2(C(=O)Nc3cc(Cl)ccc32)C12CCCCC2 | – | – | patients with advanced solid tumours | oral, 200 mg | – | any-grade adverse event incidence | 100% |
| CC(=O)c1c(C)c2cnc(Nc3ccc(C4CCN(CCS(C)(=O)=O)CC4)cn3)nc2n(C2CCCC2)c1=O | – | – | human, plasma | oral, 75 mg twice daily, day 21, multiple dose, with: letrozole | – | k_el | 3.06e-05 s⁻¹ |
| O=[N+]([O-])c1cc2c3c(ccc2c2ccccc12)[C@@H](O)[C@H](O)C=C3 | – | – | female Sprague-Dawley rat, mammary gland | intramammary, dose not given, 32 wk, palpable mammary tumours at necropsy | – | tumour incidence | 46% |
| CNC(=O)n1ccc2cc(Oc3ccnc(NC(=O)c4ccc(C5CCN(CCO)CC5)cc4)c3)c(OCCOC)cc21 | – | – | healthy human, plasma | oral, 35 mg, with: high-fat meal | baseline: fasted | AUC(0-t) reduction | ~23% |

A few entries again:
| Structure (SMILES) | tested on | assay | test system | conditions | scale | endpoint | result |
| --- | --- | --- | --- | --- | --- | --- | --- |
| CC(C)C[C@H](NC(=O)[C@H](CCCCN)NC(=O)OCC1c2ccccc2-c2ccccc21)C(=O)N[C@H](C(=O)N[C@@H](Cc1ccccc1)C(=O)N[C@@H](Cc1ccccc1)C(=O)N[C@@H](CCCCN)C(=O)NCC(=O)N[C@@H](Cc1ccccc1)C(=O)N[C@@H](C)C(=O)N[C@@H](Cc1c[nH]c2ccccc12)C(=O)N[C@@H](CC(N)=O)C(=O)N[C@H](C(=O)N[C@H]1CSSC[C@@H](C(=O)N[C@@H](Cc2c[nH]cn2)C(=O)N[C@@H](CCCNC(=N)N)C(=O)N[C@@H](CCCNC(=N)N)C(=O)N[C@@H](C)C(=O)N[C@@H](CC(N)=O)C(N)=O)NC(=O)[C@H](C(C)C)NC(=O)[C@H](CCCNC(=N)N)NC(=O)[C@H](C(C)C)NC(=O)CNC(=O)[C@H](CC(N)=O)NC(=O)[C@H](CCCNC(=N)N)NC(=O)[C@H](Cc2ccc(O)cc2)NC(=O)[C@H](C(C)C)NC1=O)C(C)C)C(C)C | – | – | ICR mouse, blood | intramammary, 10 mg/kg, day 5, 3 d dosing | – | eosinophils | 2.4 ± 0.24% |
| CC(C)[C@H](C(=O)O[C@H](C#N)c1cccc(Oc2ccccc2)c1)c1ccc(Cl)cc1 | – | measured: CYP3A4 | human, age 5 years | – | – | enzyme contribution to clearance | 2.07% |
| CC[C@H](C)[C@@H]1NC(=O)[C@@H]2CSSC[C@H](NC(=O)[C@H](CCCNC(=N)N)NC(=O)[C@@H]3CSSC[C@H](NC1=O)C(=O)N[C@@H]([C@@H](C)O)C(=O)N[C@@H](CCCNC(=N)N)C(=O)NCC(=O)N[C@@H](Cc1ccccc1)C(=O)N3)C(=O)N[C@@H](CC(C)C)C(=O)N[C@H]1CSSC[C@H](NC(=O)[C@H](C(C)C)NC(=O)CNC(=O)[C@H](CCCNC(=N)N)NC(=O)[C@H](CCCNC(=N)N)NC1=O)C(=O)N[C@@H](CCCNC(=N)N)C(=O)N2 | – | – | Sprague-Dawley rat, female, lung | 5 mg/kg, histopathology, multifocal | direction not given | alveolar macrophage aggregation score | 1 to 2 |
| CCc1ccc(CC/C=C/c2ccc3c(c2)C(=O)CC3)cc1 | – | – | Sprague-Dawley rat, female, serum | oral, 450 mg/kg/day, 14 days | – | sodium | 141 mM |
